# Measured values pooled from the literature.
# Parts stem from different laboratories: compare values within a part only. Positions count from the first letter of the parent shown.

# Set 1
# Target: CCNE2, cyclin fold, Cln2 fusion (human)
# Method: yeast growth competition, sequencing
# Medium: yeast
# Notes: strong parent motif
# Relative to: not given
# Direction: higher = stronger binding
# Parent: viral docking peptide; KGVKRKLFAEDSS
Variant,normalised enrichment score
KGVMRKLFAEDSS [K4M],3.42
KGVKRKKFAEDSS [L7K],0.464
KGTKRKLFAEDSS [V3T],3.31
KGPKRKLFAEDSS [V3P],5.12

# Set 2
# Target: Interferon regulatory factor 7, full length, phosphomimetic (IRF7, Homo sapiens, UniProt Q92985, residues 1-503, S471D/S472D/S475D/S476D/S477D/S483D/S484D/S487D)
# Method: protein-binding microarray
# Form: double-stranded DNA, one strand shown
# Medium: in vitro
# Tested at: 2200 nM top
# Notes: 60-bp whole probe
# Added: salmon DNA 0.4 mg/ml
# Relative to: random background probes
# Direction: higher = stronger binding
# All sequences stand within: GCCTAGCAC … GTCTTGATTCGCTTGACGCTGCTG
# Residues (chain): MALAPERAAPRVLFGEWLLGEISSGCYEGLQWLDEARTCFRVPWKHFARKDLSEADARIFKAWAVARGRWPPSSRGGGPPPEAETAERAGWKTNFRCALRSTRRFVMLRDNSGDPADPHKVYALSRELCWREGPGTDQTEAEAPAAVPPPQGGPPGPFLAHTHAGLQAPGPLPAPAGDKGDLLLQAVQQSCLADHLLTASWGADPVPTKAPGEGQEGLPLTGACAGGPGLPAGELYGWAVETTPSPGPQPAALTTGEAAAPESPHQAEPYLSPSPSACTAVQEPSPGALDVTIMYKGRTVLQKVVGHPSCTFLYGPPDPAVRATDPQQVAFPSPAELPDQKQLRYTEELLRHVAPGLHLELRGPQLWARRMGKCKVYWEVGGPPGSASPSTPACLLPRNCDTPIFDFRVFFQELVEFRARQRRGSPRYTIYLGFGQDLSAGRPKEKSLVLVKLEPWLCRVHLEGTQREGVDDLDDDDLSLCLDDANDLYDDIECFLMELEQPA
Sequence,fitted relative affinity [z-score]
TCAATCCTTCATTTGAAACTGTGCTAG,0.855
GCCGGTATCGACACTGGGGACGTGCTA,-0.249
TTAGGTCTCGGTCTTGGTTAGTGCTAG,0.666
GACGGTCTCCTCATCCTGACGTGCTAG,0.654
TTAGGTCTCGGTTTCCGTTAGTGCTAG,3.63
GCCGATCTCAGACTGGAGACGTGCTAG,0.17
TTAAATTTCAGTTTCGATTAGTGCTAG,8.59
TTAGATATCGGGACTGGATTCGTGCTA,-0.0845

# Set 3
# Target: TAR DNA-binding protein 43, full length, His tag (TARDBP, Homo sapiens, UniProt Q13148, residues 1-414)
# Method: RNA Bind-n-Seq
# Form: RNA
# Medium: in vitro
# Tested at: 20 nM
# Notes: 6-mer, flanks averaged, single round
# Added: 150 mM LiCl
# Relative to: input library
# Direction: higher = stronger binding
Sequence,6-mer enrichment (R)
GCUGUC,0.939
AUCCAG,0.847
UAUCAU,0.9
CCGACA,0.819
UCCCAC,0.925
GCAUAA,0.901
CACAGU,0.884
GCUUUG,1.06

# Set 4
# Target: vanadate, free oxyanion
# Method: microfluidic competitive inhibition
# Medium: in vitro, cell-free expressed
# Tested at: not given
# Notes: derived from inhibition constants, unchanged parent 676 nM
# Direction: lower = stronger binding
# Parent: PafA, mature enzyme, eGFP fusion (Elizabethkingia meningoseptica, UniProt Q9KJX5); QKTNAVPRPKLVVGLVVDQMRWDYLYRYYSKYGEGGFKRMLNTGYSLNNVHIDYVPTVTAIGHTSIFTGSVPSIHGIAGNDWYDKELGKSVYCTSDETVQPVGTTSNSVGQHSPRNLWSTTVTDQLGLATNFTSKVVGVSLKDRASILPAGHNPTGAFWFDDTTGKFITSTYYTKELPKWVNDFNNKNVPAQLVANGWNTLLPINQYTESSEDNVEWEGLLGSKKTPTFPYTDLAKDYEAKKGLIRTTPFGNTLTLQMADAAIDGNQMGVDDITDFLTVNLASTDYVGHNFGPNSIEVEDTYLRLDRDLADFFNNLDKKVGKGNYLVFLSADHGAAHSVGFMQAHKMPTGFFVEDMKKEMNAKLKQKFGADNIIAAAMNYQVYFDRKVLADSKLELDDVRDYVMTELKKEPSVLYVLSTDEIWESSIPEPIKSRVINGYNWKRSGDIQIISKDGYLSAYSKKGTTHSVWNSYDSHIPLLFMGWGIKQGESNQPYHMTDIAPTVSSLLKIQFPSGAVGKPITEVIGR
Variant,oxyanion analog dissociation constant [nM]
P227G,480
Q19G,54100
F480V,683
